Experimental data of several laboratories.

COc1cc(-c2oc3cc(OC)c(OC)c(O)c3c(=O)c2OC)ccc1O — inhibition (human Neutrophil; superoxide release, inhibitor, absorbance; 10 µM): 92%
Cc1ccc(C(C)C)c(OC(=O)Cn2cnc3c2c(=O)n(C)c(=O)n3C)c1 — inhibition (RAW264.7; NO release, inhibitor, Griess; 25 µM, LPS-stimulated): 70.7%
C=C(C(=O)O)[C@@H]1CC[C@@]2(C)CCC(=O)C(C)=C2C1 — inhibition (human Neutrophil; superoxide release, inhibitor, absorbance; 10 µM): 18.5%
CC1=CCC23OC2(C)CCC2C(C[N+](C)(C)C)C(=O)OC2C13.[I-] (stereo not shown) — inhibition (OVCAR-3; cell growth or viability, SRB; 8.3 µM): 54.3%
CC12OOC(C)(OO1)C2CCC(=O)NCCNc1ccnc2cc(Cl)ccc12 (stereo not shown) — inhibition (K562; cell growth or viability, resazurin; 10 µM, 48 h): 37.3%
CC1=C2[C@@H](O)[C@H](C(=O)O)CC[C@@]2(C)CCC1=O — inhibition (human Neutrophil; elastase release, inhibitor; 10 µM): 2.74%
CC1CCC(C(C)C)C(OC(=O)Cn2cc(COC(=O)Cn3cnc4c3c(=O)n(C)c(=O)n4C)nn2)C1 (stereo not shown) — inhibition (RAW264.7; NO release, inhibitor, Griess; 25 µM, LPS-stimulated): 61.1%
CC[C@H](C)[C@H](NC(=O)[C@H](CC(C)C)NC(=O)[C@@H](NC(=O)[C@@H](NC(=O)[C@H](CCSC)NC(C)=O)[C@@H](C)CC)[C@@H](C)CC)C(=O)N[C@H](C(=O)N[C@@H](CO)C(=O)N[C@@H](Cc1ccccc1)C(=O)N1CCC[C@H]1C(=O)N[C@@H](CCCCN)C(=O)N[C@@H](Cc1c[nH]cn1)C(=O)N[C@@H](CCCCN)C(=O)N[C@@H](CC(=O)O)C(=O)N[C@@H](Cc1c[nH]c2ccccc12)C(=O)N[C@@H](CCCCN)C(=O)N[C@H](C(=O)N[C@H](C(=O)N[C@@H](CC(C)C)C(=O)N[C@H](C(=O)N[C@@H](CCCCN)C(N)=O)C(C)C)[C@@H](C)CC)C(C)C)[C@@H](C)CC — inhibition (human cells; total IgG production; concentration not given): ≥ 50%
OC[C@H]1[C@@H](O)[C@@H](O)CN1Cc1ccc(Br)cc1 — inhibition (K562; cell growth, MTS; concentration not given): no inhibition
CC12CCC3(CCC(=O)NCCNc4ccnc5cc(Cl)ccc45)C(C)(OOC3(C)O1)O2 — inhibition (K562; cell growth or viability, resazurin; 10 µM, 48 h): 7.5%
C=C(C(=O)O)[C@@H]1CC[C@@]2(C)CCC(=O)C(C)=C2[C@H]1O — inhibition (human Neutrophil; superoxide release, inhibitor, absorbance; 10 µM): 6.23%
CC12OOC(C)(OO1)C2CCC(=O)NCCCNc1ccnc2cc(Cl)ccc12 (stereo not shown) — inhibition (K562; cell growth or viability, resazurin; 10 µM, 48 h): 83%
C=C(C(=O)OC)[C@@H]1CC[C@@]2(C)CCC(=O)C(C)=C2C1 — inhibition (human Neutrophil; superoxide release, inhibitor, absorbance; 10 µM): 18.3%
C=CCc1ccc(OC(=O)COC(=O)Cn2cnc3c2c(=O)n(C)c(=O)n3C)c(OC)c1 — inhibition (RAW264.7; NO release, inhibitor, Griess; 25 µM, LPS-stimulated): 88%
COC(=O)c1ccc(-n2cc(CCCN(CCNc3ccnc4cc(Cl)ccc34)C(=O)CCC(=O)OC3OC4OC5(C)CCC6C(C)CCC(C3C)C46OO5)nn2)cc1 (stereo not shown) — inhibition (K562; cell growth or viability, resazurin; 10 µM, 48 h): 82.5%
C=CCc1ccc(OC(=O)Cn2cnc3c2c(=O)n(C)c(=O)n3C)c(OC)c1 — inhibition (RAW264.7; NO release, inhibitor, Griess; 25 µM, LPS-stimulated): 86.8%
CC1CCC2C(C)C(OC(=O)CCC(=O)N(CCCc3cn(-c4ccc(CN5CCOCC5)cc4)nn3)CCNc3ccnc4cc(Cl)ccc34)OC3OC4(C)CCC1C32OO4 (stereo not shown) — inhibition (K562; cell growth or viability, resazurin; 10 µM, 48 h): 60.1%
COc1cc(-c2oc3cc(O)c(OC)c(O)c3c(=O)c2OC)ccc1O — inhibition (human Neutrophil; superoxide release, inhibitor, absorbance; 10 µM): 80.3%
N=C(N)NCCC[C@H](NC(=O)[C@H](Cc1ccc(-c2ccccc2)cc1)NC(=O)[C@H](CCCNC(=N)N)NC(=O)[C@H](Cc1ccc(-c2ccccc2)cc1)NC(=O)[C@@H](N)CCCNC(=N)N)C(N)=O — inhibition (MDCK; cell proliferation, MTT; 200 µM, 24 h): 15%

For quick reference, copied from above:
CC12OOC(C)(OO1)C2CCC(=O)NCCCNc1ccnc2cc(Cl)ccc12 (stereo not shown) — inhibition (K562; cell growth or viability, resazurin; 10 µM, 48 h): 83%
C=C(C(=O)OC)[C@@H]1CC[C@@]2(C)CCC(=O)C(C)=C2C1 — inhibition (human Neutrophil; superoxide release, inhibitor, absorbance; 10 µM): 18.3%
C=CCc1ccc(OC(=O)COC(=O)Cn2cnc3c2c(=O)n(C)c(=O)n3C)c(OC)c1 — inhibition (RAW264.7; NO release, inhibitor, Griess; 25 µM, LPS-stimulated): 88%
